Measurements from different studies.
Protocols differ between the studies behind these lines. ± marks the error that the study gave.
Chain of UniProt Q9UMR5 (whole entry, looked up): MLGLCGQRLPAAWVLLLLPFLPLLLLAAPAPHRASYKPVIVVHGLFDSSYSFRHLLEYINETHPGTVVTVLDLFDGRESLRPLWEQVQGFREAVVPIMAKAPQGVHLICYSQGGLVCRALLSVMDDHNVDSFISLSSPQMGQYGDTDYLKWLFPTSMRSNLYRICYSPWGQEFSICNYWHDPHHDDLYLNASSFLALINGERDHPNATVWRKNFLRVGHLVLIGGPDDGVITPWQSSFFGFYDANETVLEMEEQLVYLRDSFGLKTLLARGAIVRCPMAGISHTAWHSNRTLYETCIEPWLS
Chain of UniProt P16152 (whole entry, looked up): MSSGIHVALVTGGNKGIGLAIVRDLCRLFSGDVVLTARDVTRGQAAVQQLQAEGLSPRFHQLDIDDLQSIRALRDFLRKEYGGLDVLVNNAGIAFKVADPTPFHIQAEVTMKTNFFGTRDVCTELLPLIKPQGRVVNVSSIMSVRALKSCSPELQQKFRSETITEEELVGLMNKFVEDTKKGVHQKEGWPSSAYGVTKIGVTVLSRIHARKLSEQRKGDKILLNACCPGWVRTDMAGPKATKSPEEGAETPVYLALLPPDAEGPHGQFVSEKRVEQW

C[C@@H](O)[C@H](NC(=O)[C@@H]1CSSC[C@H](NC(=O)[C@@H](Cc2ccccc2)NC(=O)CN2CCN(CC(=O)[O-])CCN(CC(=O)[O-])CCN(CC(=O)[O-])CC2)C(=O)N[C@@H](Cc2ccc(O)cc2)C(=O)N[C@H](Cc2c[nH]c3ccccc23)C(=O)N[C@@H](CCCCN)C(=O)N[C@@H]([C@@H](C)O)C(=O)N1)C(=O)O.[177Lu+3]
retention (MEC1; gamma counter; 30 min efflux after 2 h loading): 37.4%

Cc1sc2c(c1C)C(c1ccc(Cl)cc1)=N[C@@H](CC(=O)OC(C)(C)C)c1nnc(C)n1-2
IC50 (HD-MB03; cell growth; DMSO): 337 nM

CC[C@H](C)[C@H](NC(=O)[C@H](Cc1ccccc1)NC(=O)[C@H](CCC(=O)O)NC(=O)[C@H](CCCNC(=N)N)NC(=O)[C@H](C)NC(=O)[C@H](C)NC(=O)[C@H](CCC(N)=O)NC(=O)[C@H](CCC(=O)O)NC(=O)[C@H](CCC(=O)O)NC(=O)[C@H](CC(C)C)NC(=O)[C@H](Cc1ccc(O)cc1)NC(=O)[C@H](CO)NC(=O)[C@H](CO)NC(=O)[C@@H](NC(=O)[C@H](CC(=O)O)NC(=O)[C@H](CO)NC(=O)[C@@H](NC(=O)[C@H](Cc1ccccc1)NC(=O)[C@@H](NC(=O)CNC(=O)[C@H](CCC(=O)O)NC(=O)[C@H](C)NC(=O)CCc1c[nH]cn1)[C@@H](C)O)[C@@H](C)O)C(C)C)C(=O)N[C@@H](C)C(=O)N[C@@H](Cc1c[nH]c2ccccc12)C(=O)N[C@@H](CC(C)C)C(=O)N[C@H](C(=O)N[C@@H](CCCNC(=N)N)C(=O)NCC(=O)N[C@@H](CCCNC(=N)N)C(=O)N[C@@H](CCCCNC(=O)COCCOCCNC(=O)COCCOCCNC(=O)CC[C@H](NC(=O)CCCCCCCCCCCCCCCCC(=O)O)C(=O)O)C(=O)NCC(=O)NCC(=O)N[C@@H](CO)C(=O)N[C@@H](CCCCNc1c(NCCCCCN(O)C(=O)CCC(=O)NCCCCCN(O)C(=O)CCC(=O)NCCCCCN(O)C(C)=O)c(=O)c1=O)C(=O)O)C(C)C [zirconium-89 labelled]
tissue uptake (rat, bone marrow; iv, 3 nmol/kg, 168 h, ex vivo): 1.24 %ID/g

CC[C@H](C)[C@@H]1NC(=O)[C@@H]2CCCN2C(=O)[C@H](CC(C)C)NC(=O)[C@H](CC(C)C)NC(=O)CNC(=O)[C@@H](NC(=O)[C@@H](NC(=O)[C@H](CC(=O)O)NC(=O)CNC(=O)[C@@H](NC(=O)[C@H](C)NC(=O)CNC(=O)[C@H](CCCCN)NC(=O)[C@H](CC(C)C)NC(=O)[C@H](CC(C)C)NC(=O)[C@H](CCCCN)NC(=O)CNC(=O)[C@@H](NC(=O)[C@@H](N)CC(C)C)C(C)C)C(C)C)C(C)C)CSSC[C@@H](C(=O)O)NC1=O
log2 fold change (RNA-seq, measured: Gmfg mRNA; mouse traumatic brain injury, frontal cortex and hippocampus; dose not given; relative to: TBI plus compound vs TBI): -2.59

CN(C)CCNc1nc2cc(O)ccc2c2c1C(=O)c1ccccc1-2
IC50 (ARPE-19; cytotoxicity, CCK-8; 48 h): ~2 nM

C[C@H]1CN(c2n[nH]c3nc(N[C@H]4CC[C@H](NS(=O)(=O)CCC(F)(F)F)CC4)ncc23)CCO1
relative abundance (Carbonyl reductase [NADPH] 1 (CBR1, Homo sapiens, UniProt P16152); inhibitor, Kinobeads competition profiling; 0.032 µM; relative to: vehicle): 1

CC[C@H](Nc1nc(NCc2cnc(C)cc2C)c2ncn(C(C)C)c2n1)[C@@H](C)O
IC50 (HD-MB03; cell growth; 168 h, DMSO): 501 nM

O=C(c1ccc(Cl)cc1)N1CCN2C(=O)N(OC(=O)N3CCOc4ccccc43)C(=O)C2C1 (stereo not shown)
median protein ratio (PPT2 (Homo sapiens, UniProt Q9UMR5); MS-based ABPP; SW-620 conditioned medium; 10 µM, 1 h, 37 °C; relative to: compound over DMSO, lower = more inhibition): 0.4

Cc1sc2c(c1C)C(c1ccc(Cl)cc1)=N[C@@H](CC(=O)Nc1ccc(O)cc1)c1nnc(C)n1-2
IC50 (HD-MB03; cell growth; 168 h, DMSO): 284 nM

N.N.[Cl][Pt][Cl]
IC50 (PEER; cell proliferation, CellTiter-Glo; 72 h): 8980 nM

COc1cc(C(=O)c2cc3c(-c4ccccc4)c(O)ccc3o2)cc(OC)c1OC
IC50 (MOLT-4; cell proliferation; 72 h): > 50000 nM

N.N.[Cl][Pt][Cl]
IC50 (mouse primary hepatocytes, 3D culture; MTT; 96 h): 4900 ± 66 nM

COc1c(CCC[P+](c2ccccc2)(c2ccccc2)c2ccccc2)cc2c(c1OC)OCO2.[I-]
LC50 (HT-29; SRB): > -4 log M

N[C@@H](Cc1ccc(N(CCCl)CCCl)cc1)C(=O)O
IC50 (7702 normal human cells; cell growth, CCK-8; 48 h): > 50000 nM

Cn1ncc(-c2nc(N[C@H]3CC[C@H](N)CC3)ncc2Cl)c1CC1CC1
IC50 (AML blasts, primary, RUNX1-mutated; blast expansion; 7 days, HUVEC co-culture): 17 nM

C=C(C)[C@H]1Cc2c(ccc3c2O[C@@H]2COc4cc(OC)c(OC)cc4[C@@H]2C3=O)O1
IC50 (THLE-2 without CYP expression; cytotoxicity; 48 h): 400 ± 100 nM

[Cl][58Co][Cl]
IC50 (HT-29; cell growth; 24 h): 110 MBq/mL

O=C1[O][Pt]2([NH][C@@H]3CCCC[C@H]3[NH]2)[O]C1=O
IC50 (HD-MB03; 7 d, ribociclib combination screen, together with: DMSO as partner): inactive

O=C(NOC[C@H](O)CO)c1ccc(F)c(F)c1Nc1ccc(I)cc1F
IC50 (JH-2-002; cell confluence): 220 nM

O=c1c2ccccc2nc(S)n1-c1ccccc1
IC50 (LoVo; cytotoxicity, LDH release; 24 h, 50% viability reduction): 832000 ± 19500 nM

O=C(O)C[C@H](NC(=O)[C@H](CC(=O)O)NC(=O)[C@H](CC(=O)O)NC(=O)[C@H](CC(=O)O)NC(=O)[C@H](CC(=O)O)NC(=O)[C@H](CC(=O)O)NC(=O)[C@H](CC(=O)O)NC(=O)[C@H](CC(=O)O)NC(=O)[C@H](CC(=O)O)NC(=O)[C@H](CC(=O)O)NC(=O)[C@H](CC(=O)O)NC(=O)[C@H](CCCCNC(=O)c1ccc(C(=O)NCCOCCOB2BBBBBB3BBBB3B2)cc1)NC(=O)CN1CCN(CC(=O)O)CCN(CC(=O)O)CCN(CC(=O)O)CC1)C(=O)O [gallium-67 labelled]
tissue uptake (ddY male mice, muscle; intravenous, 37 kBq, 3 h): 0.43 %ID/g

COc1c(C)c2c(c(O)c1C/C=C(\C)CCC(=O)O)C(=O)OC2
IC50 (HT-29; cell proliferation; colon cancer): 1230 nM

Repeated from above:
CC[C@H](C)[C@@H]1NC(=O)[C@@H]2CCCN2C(=O)[C@H](CC(C)C)NC(=O)[C@H](CC(C)C)NC(=O)CNC(=O)[C@@H](NC(=O)[C@@H](NC(=O)[C@H](CC(=O)O)NC(=O)CNC(=O)[C@@H](NC(=O)[C@H](C)NC(=O)CNC(=O)[C@H](CCCCN)NC(=O)[C@H](CC(C)C)NC(=O)[C@H](CC(C)C)NC(=O)[C@H](CCCCN)NC(=O)CNC(=O)[C@@H](NC(=O)[C@@H](N)CC(C)C)C(C)C)C(C)C)C(C)C)CSSC[C@@H](C(=O)O)NC1=O
log2 fold change (RNA-seq, measured: Gmfg mRNA; mouse traumatic brain injury, frontal cortex and hippocampus; dose not given; relative to: TBI plus compound vs TBI): -2.59

O=C(NOC[C@H](O)CO)c1ccc(F)c(F)c1Nc1ccc(I)cc1F
IC50 (JH-2-002; cell confluence): 220 nM
